Published values pooled from the literature.
Each line is one published result; not all experiments were run side by side. ± marks the error that the study gave.
Organism: Escherichia coli

SMILES = COc1ccc2c(c1CC=C(C)C)O[C@H]1c3cc(CC=C(C)C)c(O)cc3OC[C@@H]21; test system = TISTR 780; MIC = 128 µg/mL
SMILES = C=CCO[C@H]1[C@H](O)[C@@H](N)[C@@H](O[C@H]2[C@H](O[C@@H]3O[C@H](CO)[C@@H](O[C@H]4O[C@@H](CN)[C@@H](O)[C@H](O)[C@H]4N)[C@H]3O)[C@@H](O)[C@H](N)C[C@@H]2N)O[C@@H]1CO; assay = broth microdilution; test system = clinical isolate AG 055; MIC = 64 µg/mL
SMILES = COc1ccc2ccc3c(c2c1)C=[N+]1C2CCCCC2[N+]2=Cc4c(C)cccc4[O][Au-]21[O]3.F[P-](F)(F)(F)(F)F (stereo not shown); assay = bacterial growth, broth microdilution; test system = carbapenem-resistant; conditions = 24 h; MIC = 20 µM
SMILES = CCCCCCCCN1C(=O)/C(=N\NC(=N)N)c2cc(C)ccc21; assay = microbial growth, broth dilution; conditions = 18 h; MIC = 12 µg/mL
SMILES = O=C(NCCNCCO)c1cn(Cc2ccccc2)c2c(Cl)c(OCc3ccc(C(F)(F)F)cc3)c(Cl)cc2c1=O; test system = ATCC 25922; how to read = ≥80% growth inhibition; MIC = > 32 µg/mL
SMILES = O=C1c2ccccc2C(=O)c2c1ccc1c2C(C(=O)Nc2ccc(Br)cc2)C(=O)C1c1ccccc1 (stereo not shown); assay = microbial growth; MIC = > 100 µg/mL
SMILES = NC[C@@H]1O[C@H](O[C@H]2[C@@H](O)[C@H](O[C@@H]3[C@@H](O)[C@H](N)C[C@H](N)[C@H]3O[C@H]3O[C@H](CO)[C@@H](OCC(O)CO)[C@H](O)[C@H]3N)O[C@@H]2CO)[C@H](N)[C@@H](O)[C@@H]1O (stereo partly shown); assay = broth microdilution; test system = clinical isolate AG 002; MIC = 16 to 32 µg/mL
SMILES = CCOC(=O)c1ccc2c(c1)n(CC)[c]([Au-][Cl])[n+]2CC; assay = broth dilution; test system = DSM 1116; conditions = 20 h, 37 °C; MIC = 50.1 ± 16.7 µM
SMILES = CN1CCC(NCCC2(Cc3ccc(Cl)cc3)CCCCC2)CC1; test system = uropathogenic; conditions = 10 h; MIC = 100 µM
SMILES = CSC1COC(=O)N1/N=C/c1ccc([N+](=O)[O-])o1 (stereo not shown); assay = microbial growth, broth dilution; test system = ATCC25922; conditions = 18 h; MIC = 25 µg/mL
SMILES = CCCCO[C@H]1[C@H](O)[C@@H](N)[C@@H](O[C@H]2[C@H](O[C@@H]3O[C@H](CO)[C@@H](O[C@H]4O[C@@H](CN)[C@@H](O)[C@H](O)[C@H]4N)[C@H]3O)[C@@H](O)[C@H](N)C[C@@H]2N)O[C@@H]1CO; assay = broth microdilution; test system = clinical isolate AG 002; MIC = 32 to 64 µg/mL
SMILES = C/C(=N\NC(N)=S)c1ccc2c(c1)sc1nc(=O)c(C#N)cn12; assay = broth microdilution; MIC = < 44 µg/mL
SMILES = S=c1n(CN2CCN(c3ccccn3)CC2)nc(C23CC4CC(CC(C4)C2)C3)n1-c1ccccc1; assay = microbial growth, broth dilution; test system = IFO3301; conditions = 24 h; MIC = 16 µg/mL
SMILES = COc1ccc2c(c1)[O][Au-]13[O]c4ccc5ccc(OC)cc5c4C=[N+]1C1CCCCC1[N+]3=C2.F[P-](F)(F)(F)(F)F (stereo not shown); assay = bacterial growth, broth microdilution; test system = carbapenem-resistant; conditions = 24 h; MIC = > 20 µM
SMILES = N=C(N)NCCC[C@H](NC(=O)[C@H](Cc1c[nH]c2ccccc12)NC(=O)[C@H](CCC(N)=O)NC(=O)[C@H](Cc1c[nH]c2ccccc12)NC(=O)[C@H](CCCNC(=N)N)NC(=O)[C@@H](N)CCCNC(=N)N)C(=O)NCCCC[C@H](NC(=O)[C@H](CCCNC(=N)N)NC(=O)[C@H](Cc1c[nH]c2ccccc12)NC(=O)[C@H](CCC(N)=O)NC(=O)[C@H](Cc1c[nH]c2ccccc12)NC(=O)[C@H](CCCNC(=N)N)NC(=O)[C@@H](N)CCCNC(=N)N)C(=O)NCCCCCC(N)=O; assay = broth microdilution; test system = ATCC 43827; conditions = 24 h, 37 °C; MIC = 11 µM
SMILES = Cc1cc(/C=C2\Sc3ccccc3N2CCCN2CCCC2)c2ccccc2[n+]1C; assay = microbial growth, broth dilution; test system = ATCC 8739, ATCC8739; MIC = 8 µg/mL
SMILES = CC[C@H](C)[C@H](NC(=O)[C@H](CCCCN)NC(=O)[C@H](CCCCN)NC(=O)[C@H](Cc1c[nH]c2ccccc12)NC(=O)[C@H](CC(N)=O)NC(=O)[C@@H](NC(=O)COCCOCCOCCOCCOCCOCCOC(=O)NCCCCCCNC(=O)NCCCCCCNC(=O)Nc1nc(=O)cc(C)[nH]1)C(C)C)C(=O)N[C@@H](CC(C)C)C(=O)NCC(=O)N[C@@H](CCCCN)C(=O)N[C@H](C(=O)N[C@H](C(=O)N[C@@H](CCCCN)C(=O)N[C@H](C(=O)N[C@H](C(=O)N[C@@H](CCCCN)C(N)=O)C(C)C)C(C)C)[C@@H](C)CC)[C@@H](C)CC; test system = ATCC 8937, RPMI medium; conditions = 24 h, 37 °C; MIC = 7.5 µM
SMILES = CCn1cc(/C=C/c2ccc3ccccc3[n+]2CC)c2ccccc21; assay = microbial growth, broth dilution; test system = 780; MIC = 4 µg/mL
SMILES = NC[C@H]1OB(O)c2c(OCCO)cccc21; test system = ATCC 25922; conditions = M9 medium, together with: norvaline 12.5 µM; MIC = 3.1 µM
SMILES = C[n+]1ccn(CC([O-])c2ccccc2)[c]1[Ag-][I].[Na+] (stereo not shown); assay = broth dilution; test system = ATCC 25922; conditions = 18 h, 37 °C; MIC = 5 µg/mL
SMILES = CC(CCCOC(=O)CCC[N+](C)(C)C)C1CCC2C3C(OC(=O)CCC[N+](C)(C)C)CC4CC(OC(=O)CCC[N+](C)(C)C)CCC4(C)C3CC(OC(=O)CCC[N+](C)(C)C)C12C (stereo not shown); assay = microbial growth, broth dilution; test system = ATCC25922; conditions = 16 h; MIC = 62.5 µg/mL
SMILES = COc1ccc2ccc3c(c2c1)C=[N+]1C2CCCCC2[N+]2=Cc4ccc(OCCN5CCCCC5)cc4[O][Au-]21[O]3.F[P-](F)(F)(F)(F)F (stereo not shown); assay = bacterial growth, broth microdilution; test system = carbapenem-resistant clinical isolate; conditions = 24 h; MIC = 20 µM
SMILES = CC(=O)N1CCc2cc(S(=O)(=O)N3CCN(c4cc(C(F)(F)F)ccn4)CC3)ccc21; assay = microbial growth, broth dilution; test system = 25922; conditions = 22 h; MIC = > 64 µg/mL
SMILES = COc1c2c(cc3c1[C@@H]1Oc4c(ccc(O)c4CC=C(C)C)[C@@H]1CO3)OC(C)(C)C=C2; test system = TISTR 780; MIC = 128 µg/mL
SMILES = COc1ccc2ccc3c(c2c1)C=[N+]1C2CCCCC2[N+]2=Cc4cc(C(C)(C)C)cc(C(C)(C)C)c4[O][Au-]21[O]3.F[P-](F)(F)(F)(F)F (stereo not shown); assay = bacterial growth, broth microdilution; test system = carbapenem-resistant; conditions = 24 h; MIC = > 20 µM
SMILES = CC1=C[C@@H](C)[C@H]2[C@@H]3C(=O)C(Cl)(Cl)C(=O)[C@H](C)C(=O)O[C@@H](C)/C=C/C=C\[C@@H](C)[C@@H]3C=C[C@@H]2C1; test system = K12 ΔtolC; conditions = 24 h; MIC = > 3.2 µg/mL
SMILES = NC[C@@H]1O[C@H](O[C@H]2[C@@H](O)[C@H](O[C@@H]3[C@@H](O)[C@H](N)C[C@H](N)[C@H]3O[C@H]3O[C@H](CO)[C@@H](OCCO)[C@H](O)[C@H]3N)O[C@@H]2CO)[C@H](N)[C@@H](O)[C@@H]1O; assay = broth microdilution; test system = clinical isolate AG 003; MIC = 32 µg/mL
SMILES = C[Si](C)(C)Cc1ccc(C2COC(=O)N2/N=C/c2ccc([N+](=O)[O-])o2)cc1 (stereo not shown); assay = microbial growth, broth dilution; test system = ATCC25922; conditions = 18 h; MIC = > 50 µg/mL

Some of these lines once more:
SMILES = C/C(=N\NC(N)=S)c1ccc2c(c1)sc1nc(=O)c(C#N)cn12; assay = broth microdilution; MIC = < 44 µg/mL
SMILES = CC[C@H](C)[C@H](NC(=O)[C@H](CCCCN)NC(=O)[C@H](CCCCN)NC(=O)[C@H](Cc1c[nH]c2ccccc12)NC(=O)[C@H](CC(N)=O)NC(=O)[C@@H](NC(=O)COCCOCCOCCOCCOCCOCCOC(=O)NCCCCCCNC(=O)NCCCCCCNC(=O)Nc1nc(=O)cc(C)[nH]1)C(C)C)C(=O)N[C@@H](CC(C)C)C(=O)NCC(=O)N[C@@H](CCCCN)C(=O)N[C@H](C(=O)N[C@H](C(=O)N[C@@H](CCCCN)C(=O)N[C@H](C(=O)N[C@H](C(=O)N[C@@H](CCCCN)C(N)=O)C(C)C)C(C)C)[C@@H](C)CC)[C@@H](C)CC; test system = ATCC 8937, RPMI medium; conditions = 24 h, 37 °C; MIC = 7.5 µM
SMILES = C[n+]1ccn(CC([O-])c2ccccc2)[c]1[Ag-][I].[Na+] (stereo not shown); assay = broth dilution; test system = ATCC 25922; conditions = 18 h, 37 °C; MIC = 5 µg/mL
SMILES = CC1=C[C@@H](C)[C@H]2[C@@H]3C(=O)C(Cl)(Cl)C(=O)[C@H](C)C(=O)O[C@@H](C)/C=C/C=C\[C@@H](C)[C@@H]3C=C[C@@H]2C1; test system = K12 ΔtolC; conditions = 24 h; MIC = > 3.2 µg/mL
